Results collected from several papers.
Each line is one published result; not all experiments were run side by side. Values joined by “and” are separate records of one study, mostly repeats; a detail may differ. Numbers after ± are the reported error.
B1: SMARCD1 SWIFT domain (Homo sapiens); chain IKQKRKLRIFISNTFNPAKSDAEDGEGTVASWELRVEGRLLEDSALSKYDATKQKRKFSSFFKSLVIELDKDLYGPDNHLVEWHRTATTQETDGFQVKRPGDVNVRCTVLLMLDYQPPQFMPPEPIIINHVISVDPNDQKKTACYDIDVEVDDTL
B2: BTN2A1 residues 271-527 (Homo sapiens, UniProt Q7KYR7); chain KLQKEKKILSGEKEFERETREIALKELEKERVQKEEELQVKEKLQEELRWRRTFLHAVDVVLDPDTAHPDLFLSEDRRSVRRCPFRHLGESVPDNPERFDSQPCVLGRESFASGKHYWEVEVENVIEWTVGVCRDSVERKGEVLLIPQNGFWTLEMHKGQYRAVSSPDRILPLKESLCRVGVFLDYEAGDVSFYNMRDRSHIYTCPRSAFSVPVRPFFRLGCEDSPIFICPALTGANGVTVPEEGLTLHRVGTHQSL
B3: BAD (Homo sapiens, UniProt Q92934); chain MFQIPEFEPSEQEDSSSAERGLGPSPAGDGPSGSGKHHRQAPGLLWDASHQQEQPTSSSHHGGAGAVEIRSRHSSYPAGTEDDEGMGEEPSPFRGRSRSAPPNLWAAQRYGRELRRMSDEFVDSFKKGLPRPKSAGTATQMRQSSSWTRVFQSWWDRNLGRGSSAPSQ
B4: ERRFI1 330-399 (human, UniProt Q9UJM3); N-terminal FITC; sequence looked up; chain SRTPSPKSLPSYLNGVMPPTQSFAPDPKYVSSKALQRQNSEGSASKVPCILPIIENGKKVSSTHYYLLPE
B5: SRS2 1107-1174 Q1155E (Saccharomyces cerevisiae, UniProt P12954); N-terminal cysteine BODIPY-FL; chain CHNPDDTTVDNRPIISNAKFLADAAMKKTQKFSKKVKNEPASSQMDIFSELSRAKKKSKLNNGEIIVID
B6: AXIN1 383-506 (Homo sapiens, UniProt O15169-2); HiLyte488 label; sequence looked up; chain VEPQKFAEELIHRLEAVQRTREAEEKLEERLKRVRMEEEGEDGDPSSGPPGPCHKLPPAPAWHHFPPRCVDMGCAGLRDAHEENPESILDEHVQRVLRTPGRQSPGPGHRSPDSGHVAKMPVAL
B7: EFR3A 721-791 (Homo sapiens, UniProt Q14156); chain SNTEEITFEALKKAIDTSGMEEQEKEKRRLVIEKFQKAPFEEIAAQCESKANLLHDRLAQILELTIRPPPS
B8: RSPO4/IgG1 Fc RSPO4 32-137 Q65R/N297Q; CPT2 conjugated via azide click; chain GGNCTGCIICSEENGCSTCQQRLFLFIRREGIRRYGKCLHDCPPGYFGIRGQEVNRCKKCGATCESCFSQDFCIRCKRQFYLYKGKCLPTCPPGTLAHQNTRECQGGGGGSGGGGSGGGGS
B9: IL18 37-193 L45C/C74S/C104S/C112S/C163S/E192C (Homo sapiens, UniProt Q14116); chain YFGKLESKCSVIRNLNDQVLFIDQGNRPLFEDMTDSDSRDNAPRTIFIISMYKDSQPRGMAVTISVKSEKISTLSSENKIISFKEMNPPDNIKDTKSDIIFFQRSVPGHDNKMQFESSSYEGYFLASEKERDLFKLILKKEDELGDRSIMFTVQNCD
B10: VCL 1-252 (Homo sapiens, UniProt P18206); sequence looked up; chain MPVFHTRTIESILEPVAQQISHLVIMHEEGEVDGKAIPDLTAPVAAVQAAVSNLVRVGKETVQTTEDQILKRDMPPAFIKVENACTKLVQAAQMLQSDPYSVPARDYLIDGSRGILSGTSDLLLTFDEAEVRKIIRVCKGILEYLTVAEVVETMEDLVTYTKNLGPGMTKMAKMIDERQQELTHQEHRVMLVNSMNTVKELLPVLISAMKIFVTTKNSKNQGIEEALKNRNFTVEKMSAEINEIIRVLQLTS
Sequence of UniProt P61875 (whole entry, looked up): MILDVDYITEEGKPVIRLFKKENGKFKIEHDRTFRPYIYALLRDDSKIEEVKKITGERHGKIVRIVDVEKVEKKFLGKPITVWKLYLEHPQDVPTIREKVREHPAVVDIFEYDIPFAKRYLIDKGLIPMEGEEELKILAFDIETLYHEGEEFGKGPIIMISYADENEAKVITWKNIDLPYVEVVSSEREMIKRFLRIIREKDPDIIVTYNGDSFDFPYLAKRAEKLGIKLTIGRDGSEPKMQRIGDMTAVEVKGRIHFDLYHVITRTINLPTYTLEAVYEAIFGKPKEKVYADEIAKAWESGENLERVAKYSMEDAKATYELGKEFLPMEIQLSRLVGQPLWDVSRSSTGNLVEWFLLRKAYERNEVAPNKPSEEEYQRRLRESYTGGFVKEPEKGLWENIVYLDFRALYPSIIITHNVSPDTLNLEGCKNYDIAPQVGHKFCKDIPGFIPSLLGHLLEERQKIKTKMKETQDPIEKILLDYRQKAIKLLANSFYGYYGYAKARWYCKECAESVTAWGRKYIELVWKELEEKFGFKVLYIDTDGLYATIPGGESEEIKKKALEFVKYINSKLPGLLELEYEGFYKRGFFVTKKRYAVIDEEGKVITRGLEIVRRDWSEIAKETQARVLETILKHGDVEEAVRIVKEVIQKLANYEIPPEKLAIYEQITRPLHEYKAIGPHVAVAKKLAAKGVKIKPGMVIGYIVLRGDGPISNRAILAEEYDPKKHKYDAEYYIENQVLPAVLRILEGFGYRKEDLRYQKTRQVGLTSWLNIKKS
Sequence of UniProt P70345 (whole entry, looked up): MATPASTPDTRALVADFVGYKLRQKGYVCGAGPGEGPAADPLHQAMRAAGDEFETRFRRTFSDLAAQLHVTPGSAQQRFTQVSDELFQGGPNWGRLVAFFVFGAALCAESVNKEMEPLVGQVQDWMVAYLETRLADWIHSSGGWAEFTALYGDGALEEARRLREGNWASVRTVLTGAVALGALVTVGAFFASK
Sequence of UniProt Q06671 (whole entry, looked up): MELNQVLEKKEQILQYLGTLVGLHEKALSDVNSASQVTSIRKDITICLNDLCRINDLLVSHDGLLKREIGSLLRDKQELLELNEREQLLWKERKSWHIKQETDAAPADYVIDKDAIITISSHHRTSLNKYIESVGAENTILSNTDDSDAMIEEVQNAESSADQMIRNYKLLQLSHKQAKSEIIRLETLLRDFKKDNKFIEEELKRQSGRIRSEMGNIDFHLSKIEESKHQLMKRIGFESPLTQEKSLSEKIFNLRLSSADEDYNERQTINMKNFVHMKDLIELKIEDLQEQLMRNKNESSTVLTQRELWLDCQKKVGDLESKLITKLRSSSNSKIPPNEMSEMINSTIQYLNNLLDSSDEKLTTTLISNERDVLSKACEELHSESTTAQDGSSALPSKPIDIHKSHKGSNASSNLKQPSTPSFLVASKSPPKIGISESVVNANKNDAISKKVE
Sequence of UniProt Q5BJF2 (whole entry, looked up): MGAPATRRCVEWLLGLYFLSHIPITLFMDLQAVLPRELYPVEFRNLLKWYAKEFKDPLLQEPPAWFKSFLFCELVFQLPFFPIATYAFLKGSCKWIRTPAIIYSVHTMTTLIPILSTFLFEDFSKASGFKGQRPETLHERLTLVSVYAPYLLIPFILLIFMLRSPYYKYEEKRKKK
Sequence of UniProt P26368 (whole entry, looked up): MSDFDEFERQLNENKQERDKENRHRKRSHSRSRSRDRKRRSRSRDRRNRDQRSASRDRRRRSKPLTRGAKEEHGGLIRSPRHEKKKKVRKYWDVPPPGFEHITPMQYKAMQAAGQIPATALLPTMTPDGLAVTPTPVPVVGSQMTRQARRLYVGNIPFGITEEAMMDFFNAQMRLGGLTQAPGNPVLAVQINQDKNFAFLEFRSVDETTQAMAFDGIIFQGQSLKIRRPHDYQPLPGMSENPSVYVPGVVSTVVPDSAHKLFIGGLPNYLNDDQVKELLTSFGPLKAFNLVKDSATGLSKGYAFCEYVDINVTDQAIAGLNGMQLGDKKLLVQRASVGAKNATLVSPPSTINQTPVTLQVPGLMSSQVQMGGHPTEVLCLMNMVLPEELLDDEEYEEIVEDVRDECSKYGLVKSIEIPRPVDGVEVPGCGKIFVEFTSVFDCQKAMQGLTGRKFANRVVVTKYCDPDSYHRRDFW
Sequence of UniProt P09871 (whole entry, looked up): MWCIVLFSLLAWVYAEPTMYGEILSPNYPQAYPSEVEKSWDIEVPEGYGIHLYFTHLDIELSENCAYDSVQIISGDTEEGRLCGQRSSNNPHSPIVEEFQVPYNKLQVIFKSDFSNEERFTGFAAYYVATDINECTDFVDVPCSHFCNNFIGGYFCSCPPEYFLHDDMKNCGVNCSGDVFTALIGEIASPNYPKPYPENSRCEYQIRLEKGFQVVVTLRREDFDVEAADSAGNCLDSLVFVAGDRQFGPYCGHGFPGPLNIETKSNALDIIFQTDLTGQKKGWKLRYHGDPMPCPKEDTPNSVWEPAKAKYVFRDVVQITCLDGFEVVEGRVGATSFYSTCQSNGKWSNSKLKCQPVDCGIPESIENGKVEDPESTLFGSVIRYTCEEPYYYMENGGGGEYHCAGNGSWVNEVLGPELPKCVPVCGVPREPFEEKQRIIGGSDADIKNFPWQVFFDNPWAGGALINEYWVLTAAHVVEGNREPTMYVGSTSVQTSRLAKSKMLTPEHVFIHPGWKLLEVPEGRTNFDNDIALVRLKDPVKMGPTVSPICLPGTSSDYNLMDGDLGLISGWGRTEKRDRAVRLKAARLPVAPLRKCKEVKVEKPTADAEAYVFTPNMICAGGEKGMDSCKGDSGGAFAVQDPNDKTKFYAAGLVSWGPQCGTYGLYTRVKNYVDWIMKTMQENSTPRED
Sequence of UniProt Q9WV60 (whole entry, looked up): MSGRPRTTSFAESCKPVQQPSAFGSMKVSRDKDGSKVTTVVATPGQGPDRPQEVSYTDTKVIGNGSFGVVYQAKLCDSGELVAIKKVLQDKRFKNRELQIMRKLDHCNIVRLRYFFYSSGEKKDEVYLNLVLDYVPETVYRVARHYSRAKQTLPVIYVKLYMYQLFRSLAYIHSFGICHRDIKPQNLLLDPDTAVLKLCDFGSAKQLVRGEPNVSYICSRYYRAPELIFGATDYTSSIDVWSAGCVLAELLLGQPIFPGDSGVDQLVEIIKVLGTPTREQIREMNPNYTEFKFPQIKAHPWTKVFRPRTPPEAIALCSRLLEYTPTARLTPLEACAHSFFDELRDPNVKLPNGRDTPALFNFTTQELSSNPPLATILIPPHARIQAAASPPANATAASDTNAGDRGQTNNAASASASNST
Sequence of UniProt Q23985 (whole entry, looked up): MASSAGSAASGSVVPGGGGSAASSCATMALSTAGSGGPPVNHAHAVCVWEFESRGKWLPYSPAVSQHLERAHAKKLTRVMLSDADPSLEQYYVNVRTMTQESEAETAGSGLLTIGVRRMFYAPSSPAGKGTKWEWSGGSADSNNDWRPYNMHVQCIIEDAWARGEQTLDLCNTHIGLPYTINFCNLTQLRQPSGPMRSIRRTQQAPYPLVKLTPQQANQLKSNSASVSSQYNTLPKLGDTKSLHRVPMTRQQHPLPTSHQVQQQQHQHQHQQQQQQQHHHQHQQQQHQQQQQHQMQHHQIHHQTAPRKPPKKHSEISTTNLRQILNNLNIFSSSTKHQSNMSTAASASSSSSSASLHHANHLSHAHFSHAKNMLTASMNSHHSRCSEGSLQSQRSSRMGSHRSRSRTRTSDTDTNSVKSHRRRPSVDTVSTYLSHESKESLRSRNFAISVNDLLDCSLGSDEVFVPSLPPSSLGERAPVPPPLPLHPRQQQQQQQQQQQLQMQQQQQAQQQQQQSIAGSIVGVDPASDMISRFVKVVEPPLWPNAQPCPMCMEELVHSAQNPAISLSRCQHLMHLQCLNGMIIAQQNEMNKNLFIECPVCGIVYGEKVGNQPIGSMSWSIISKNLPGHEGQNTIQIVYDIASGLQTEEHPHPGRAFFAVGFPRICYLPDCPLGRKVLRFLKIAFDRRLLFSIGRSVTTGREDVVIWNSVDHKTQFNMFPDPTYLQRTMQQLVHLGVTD

B1 (SMARCD1 SWIFT domain)
Kd (POU2F3 (UniProt Q9UKI9); MST): 4.46 ± 2.62 µM

human VDAC1
log2 fold change (PP6C (human); co-immunoprecipitation, IP-MS; CYB5R4 knockout cells; concentration not given; relative to: CYB5R4 knockout over parental): 0.4

B2 (BTN2A1 residues 271-527)
Kd (BTN3A1 fragment (Homo sapiens); ITC): > 100 µM

B3 (BAD)
Kd (Bcl2l2 (Mus musculus, UniProt P70345); FRET or BRET; not purified): 9 µM

B4 (ERRFI1 330-399)
Kd (EGFR 696-1022 (Homo sapiens, UniProt P00533); fluorescence polarization; apparent): 5.2 µM

B5 (SRS2 1107-1174 Q1155E)
Kd (POL30 1-258 K127G (Saccharomyces cerevisiae, UniProt P15873); fluorescence polarisation; apparent): 5.2 µM

HSP20 (Thermococcus kodakaraensis)
Kd (pol (Pyrococcus furiosus, UniProt P61875); NMR titration): 36.7 µM and 18.6 µM

GCVRLHESCLGQQVPCCDPAATCYCSGRGDNDLVCYCR (designed binder)
Kd (ITGA2B/ITGB3 K562 cells; flow cytometry; designed binder, U87MG): > 0.1 µM

colistin
MIC (Pseudomonas aeruginosa; clinical isolate RKI 25/14): ≤ 1 mg/L

human ME2 M75L
activation fold (enzyme activity, activator, NADH absorbance; recombinant enzyme; range over 0 to 5 mM, pH 7.4; relative to: wild type): 1.4

B6 (AXIN1 383-506)
Kd (Gsk3b 26-383 (Mus musculus, UniProt Q9WV60); fluorescence polarisation): 0.0027 µM

B7 (EFR3A 721-791)
Kd (TTC7B/FAM126B 1-308; BLI): 0.000298 µM

NLFDDNIDIFADLT (WASHC2A 1261-1274 (Homo sapiens))
Kd (SNX27 fragment (Homo sapiens); ITC; peptide): 38.4 ± 1.34 µM

FGA (Homo sapiens, UniProt P02671)
cross-linked residues (EML6 (Homo sapiens, UniProt Q6ZMW3); cross-linking MS; with: DSSO): K448 to K808

B8
Kd (LGR5 (Homo sapiens, UniProt O75473); whole-cell binding saturation; Fc fusion, HEK293T): 0.0013 µM

AGGCUGUUUUAAUCUCUUCUAA (ssRNA)
Kd (U2AF2 148-342 (Homo sapiens, UniProt P26368); MST; RNA): 11.5 ± 1.18 µM

Notch ankyrin domain T83A/R107A (Drosophila)
Kd (dx (Drosophila melanogaster, UniProt Q23985); AUC): 17.6 µM

11-deoxycorticosterone
Kd (CYP11B2 (human); substrate binding, stopped-flow global kinetic fitting; purified enzyme; model, 4-state, linear IF, with: 40-fold excess adrenodoxin): 1.82 µM

YLEFDPLYVRLFYVNC (engineered peptide)
Kd (VPS35/VPS26A/VPS29 retromer complex (Homo sapiens); SPR; peptide): 0.0011 µM

CACNA1C fragment (Oryctolagus cuniculus) (sequence not shown)
Kd (Prkaca (Mus musculus, UniProt P05132); ITC; pH 7.8, 25 °C): 1.4 µM

ALB (Homo sapiens, UniProt P02768)
cross-linked residues (CPXM2 (Homo sapiens, UniProt Q8N436); cross-linking MS; with: DSSO): K219 to K732

DHEYVLTESFLDSGAFPNHDVIDHNKMLNSNYNGNGILNKGGVLGLVKEYYKKSDVGR (ATG9 940-997 (Saccharomyces cerevisiae, UniProt Q12142); sequence looked up)
Kd (ATG23 full-length, dimer (Saccharomyces cerevisiae, UniProt Q06671); BLI): 0.37 µM

CDH23 fragment (Mus musculus) (sequence not shown)
Kd (PCDH15 fragment (Mus musculus); SPR): 3.6 ± 0.9 µM

UBE2D2 (Homo sapiens, UniProt P62837)
Kd (NEDD4 HECT domain, Cy5 N-terminus (Homo sapiens); MST): 475 ± 69 µM

cyclophilin B (human)
log2 fold change (CYB5R4 knockout human cells; PP6 interaction, 3xFLAG-PP6C IP-MS; concentration not given; relative to: CYB5R4 KO over parental): -1.55

B9
Kd (IL18BP (Homo sapiens, UniProt O95998); SPR): 2e-05 µM

GYRRKFAAAAASHREFPF (HTN1 residues 9-26 alanine substitutions at 15-19)
Kd (TMEM97 (Homo sapiens, UniProt Q5BJF2); SPR; peptide): > 50 µM

MBL-A mature, hydroxylysine, hydroxyproline in collagen (Rattus norvegicus, UniProt P19999)
Kd (C1S (Homo sapiens, UniProt P09871); SPR; with: CaCl2 140 mM): 0.0629 µM

KLLMIIHDRREFAKFEKEKMNAKWDTQENPIYKSAINNFKNPNYGRKAGL (ITGB1 752-801 P786A (Homo sapiens, UniProt P05556-5); sequence looked up)
Kd (Tln2 312-408 (Mus musculus, UniProt Q71LX4); NMR titration): 176 µM

PF4 tetramer
Kd (GP6 monomer (UniProt Q9HCN6); SPR): 1.3 ± 0.14 µM

B10 (VCL 1-252)
Kd (Ctnna1 R551A (Mus musculus, UniProt P26231); BLI): 0.12 µM and 0.16 µM

Repeated from above:
FGA (Homo sapiens, UniProt P02671)
cross-linked residues (EML6 (Homo sapiens, UniProt Q6ZMW3); cross-linking MS; with: DSSO): K448 to K808

B8
Kd (LGR5 (Homo sapiens, UniProt O75473); whole-cell binding saturation; Fc fusion, HEK293T): 0.0013 µM

AGGCUGUUUUAAUCUCUUCUAA (ssRNA)
Kd (U2AF2 148-342 (Homo sapiens, UniProt P26368); MST; RNA): 11.5 ± 1.18 µM

Notch ankyrin domain T83A/R107A (Drosophila)
Kd (dx (Drosophila melanogaster, UniProt Q23985); AUC): 17.6 µM

11-deoxycorticosterone
Kd (CYP11B2 (human); substrate binding, stopped-flow global kinetic fitting; purified enzyme; model, 4-state, linear IF, with: 40-fold excess adrenodoxin): 1.82 µM
